Assay results from different studies.
Numbered parts are unrelated; each lists some results of a single study.

Set 1
Target: Sal-like protein 4, full length isoform A (SALL4, Homo sapiens, UniProt Q9UJQ4, residues 1-1053)
UniProt Q9UJQ4, sequence (whole entry, looked up): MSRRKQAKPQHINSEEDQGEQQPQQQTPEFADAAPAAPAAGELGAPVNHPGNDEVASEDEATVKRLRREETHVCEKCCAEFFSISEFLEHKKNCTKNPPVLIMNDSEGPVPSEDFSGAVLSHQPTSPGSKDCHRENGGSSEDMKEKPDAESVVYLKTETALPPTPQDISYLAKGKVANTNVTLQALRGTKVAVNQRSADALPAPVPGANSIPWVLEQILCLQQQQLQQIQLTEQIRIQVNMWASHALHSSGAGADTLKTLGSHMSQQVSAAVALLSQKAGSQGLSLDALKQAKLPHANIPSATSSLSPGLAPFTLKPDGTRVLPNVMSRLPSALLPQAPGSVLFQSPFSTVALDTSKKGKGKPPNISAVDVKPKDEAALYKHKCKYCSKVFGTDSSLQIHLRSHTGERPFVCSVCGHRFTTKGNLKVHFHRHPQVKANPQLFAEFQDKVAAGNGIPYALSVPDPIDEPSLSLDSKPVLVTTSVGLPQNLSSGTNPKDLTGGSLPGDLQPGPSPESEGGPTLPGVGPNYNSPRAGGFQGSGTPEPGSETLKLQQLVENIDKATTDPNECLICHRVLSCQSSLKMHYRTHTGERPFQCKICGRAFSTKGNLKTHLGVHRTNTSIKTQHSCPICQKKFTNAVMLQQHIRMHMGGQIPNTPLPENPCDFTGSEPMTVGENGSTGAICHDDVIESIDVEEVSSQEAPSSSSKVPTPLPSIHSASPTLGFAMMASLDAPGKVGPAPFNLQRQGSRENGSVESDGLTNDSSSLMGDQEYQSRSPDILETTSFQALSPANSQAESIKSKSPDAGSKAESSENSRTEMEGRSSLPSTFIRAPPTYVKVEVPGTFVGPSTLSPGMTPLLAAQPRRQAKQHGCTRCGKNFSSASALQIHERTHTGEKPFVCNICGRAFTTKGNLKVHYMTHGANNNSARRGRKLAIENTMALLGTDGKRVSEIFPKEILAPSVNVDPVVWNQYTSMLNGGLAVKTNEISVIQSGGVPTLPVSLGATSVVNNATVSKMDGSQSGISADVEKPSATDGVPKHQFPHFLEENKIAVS
Method: universal PBM
Molecule type: double-stranded DNA, one strand shown
Sample: in vitro
Tested at: 600 nM
Notes: 8-mer, flanks averaged, mean of replicates
Reading: higher = stronger binding
With `AGCAAGGA` the E-score was -0.0396.
`TAGCCATA` has an E-score of 0.173.
For `CAGCTATG`, the E-score was 0.15.
With `ATCTGCGC` the E-score was -0.198.
With `CAACAAGA` the E-score was 0.117.
With `ACACCTTG` the E-score was -0.00258.
`ATGCATCA` gave an E-score of 0.259.
`ACCTGAAA` gave an E-score of 0.0562.
`GACGGGCC` gave an E-score of -0.39.
The E-score of `GAGACGCA` is reported as -0.18.
For `CCCGCGAC`, the E-score was -0.369.
`GTCTCGTA` gave an E-score of -0.0257.
The E-score of `AGAAGTCC` is reported as -0.0853.
`ATTTCCTA` has an E-score of 0.272.
The E-score of `TCGTTACA` is reported as 0.0107.
For `ATGGTCTG`, the E-score was 0.0336.
For `ACGGAACC`, the E-score was -0.132.
For `ATGGAGCC`, the E-score was -0.147.
`CTAAAAAC` gave an E-score of -0.114.
The E-score of `CGTTACCA` is reported as 0.0656.
`AACGGCTA` has an E-score of -0.042.
For `GGAACAAC`, the E-score was -0.0648.
For `AGCGTGTA`, the E-score was 0.0182.
The E-score of `ACACGGGC` is reported as -0.305.
With `ACGCTTCA` the E-score was -0.0262.

Set 2
Target: TAR DNA-binding protein 43, full length, His tag (TARDBP, Homo sapiens, UniProt Q13148, residues 1-414)
Method: RNA Bind-n-Seq
Molecule type: RNA
Sample: in vitro
Tested at: 20 nM
Notes: 6-mer, flanks averaged, single round
Together with: 150 mM KCl
Reference: input library
Reading: higher = stronger binding
For `UUGGUA`, “6-mer enrichment (R)” read 0.768.
Under “6-mer enrichment (R)”, `GUAUUG` is recorded as 0.837.
For `GUGCAU`, “6-mer enrichment (R)” read 0.947.
`CUUGGC`: “6-mer enrichment (R)” 0.802.
`GCAGAA`: “6-mer enrichment (R)” 0.976.
Under “6-mer enrichment (R)”, `UAUAUG` is recorded as 0.713.
`UGCCCC` — result for “6-mer enrichment (R)”: 0.689.
`CUUGGG` — result for “6-mer enrichment (R)”: 1.78.
`CACUGU`: “6-mer enrichment (R)” 0.648.
`UCUCUU`: “6-mer enrichment (R)” 0.58.
`AUGAGG`: “6-mer enrichment (R)” 1.86.
Under “6-mer enrichment (R)”, `AGCGGA` is recorded as 1.54.
`GCAGCC` — result for “6-mer enrichment (R)”: 0.893.
For `CAUGGC`, “6-mer enrichment (R)” read 0.865.
`GUAACA` — result for “6-mer enrichment (R)”: 0.685.

Set 3
Target: Histone acetyltransferase KAT6A, winged helix 2, GST fusion (KAT6A, Homo sapiens, UniProt Q92794, residues 85-181)
Method: protein binding microarray
Molecule type: double-stranded DNA, one strand shown
Sample: in vitro
Tested at: not given
Notes: 8-mer, flanks averaged, mean of 2 arrays, mostly near background
Reference: not given
Reading: higher = stronger binding
Residues (chain): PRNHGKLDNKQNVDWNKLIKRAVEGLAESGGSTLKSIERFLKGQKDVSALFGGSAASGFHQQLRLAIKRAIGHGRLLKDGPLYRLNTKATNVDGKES
For `AACTGTGG`, the E-score was -0.00356.
`CCTCGGAA` has an E-score of 0.0935.
With `AGGTATGG` the E-score was -0.191.
For `AGATACAT`, the E-score was -0.142.
For `ATCTAGTA`, the E-score was 0.103.
`CGAGTGCA` gave an E-score of 0.154.
`CTGGTAAG` gave an E-score of -0.0366.
`CATGTCTA` gave an E-score of -0.0629.
`AATCACAT` has an E-score of -0.191.
The E-score of `CTAAATAA` is reported as 0.0656.
`GCCGGGCA` has an E-score of 0.129.
`GCATGCGC` gave an E-score of 0.218.
The E-score of `AACCACCT` is reported as -0.0246.
The E-score of `GGTAGGAC` is reported as 0.073.
`CTAGACCA` gave an E-score of -0.296.
`ACATAGTA` has an E-score of -0.0973.
For `CTCCCCTC`, the E-score was 0.212.
`AGAGCTGC` has an E-score of -0.0892.
`ACACAGAC` has an E-score of 0.0847.

Set 4
Target: Interferon regulatory factor 5, full length, phosphomimetic (IRF5, Homo sapiens, UniProt Q13568-2, residues 1-514, K96S/S451D/S453D/S456D/S462D)
Method: protein-binding microarray
Molecule type: double-stranded DNA, one strand shown
Sample: in vitro
Tested at: 250 nM
Notes: 60-bp whole probe
Together with: salmon DNA 0.4 mg/ml
Reference: random background probes
Reading: higher = stronger binding
Constant ends, left off below: GCCTAGCAC … GTCTTGATTCGCTTGACGCTGCTG
The log fluorescence of `GACGGTTTCGACTTTGGGGACGTGCTA` is reported as 5.23 z-score.
The log fluorescence of `GGTGTTTTACAGGTTCTCTTTGTGCTA` is reported as -0.0295 z-score.
The log fluorescence of `TTAGGACTGGGCTTCGGTTAGTGCTAG` is reported as 0.201 z-score.
The log fluorescence of `CTATATTAGGGAAGTGTGTTGTGCTAG` is reported as -0.21 z-score.
With `TCAATTTCCACTTTGACACTGTGCTAG` the log fluorescence was 1.15 z-score.
`GGCGGTTTCGGGTTTCGGGACGTGCTA` gave a log fluorescence of 8.42 z-score.
For `CACGGTCTCCTACTGCTGACGTGCTAG`, the log fluorescence was -0.388 z-score.
With `TCAGCTTCCTCTTTACTACTGTGCTAG` the log fluorescence was 0.602 z-score.
`GACGGTGTCCTTCTCCTGACGTGCTAG` gave a log fluorescence of -0.338 z-score.
With `TCACAAAAATGATTGGTACTGTGCTAG` the log fluorescence was 0.00481 z-score.
`TTAGATTTCAGTTCCGATTTGTGCTAG` has a log fluorescence of 2.76 z-score.
`TCAATTTTTTTTTTCATACTGTGCTAG` has a log fluorescence of 1.33 z-score.
With `TTAGATATCAGGCTCGATTAGTGCTAG` the log fluorescence was 0.175 z-score.
The log fluorescence of `CTAGGTCTCCTTATCCTTTAGTGCTAG` is reported as -0.158 z-score.
The log fluorescence of `GACGATTTCCTTCTCCTGACGTGCTAG` is reported as 0.477 z-score.
The log fluorescence of `TTCGGACTGCTTATCCTTTAGTGCTAG` is reported as -0.0657 z-score.
`GCCGGTTCCGGTTTCGGGACGTGCTAG` gave a log fluorescence of 5.14 z-score.
`TCCTTTATGTACTCTCTACATGTGCTA` has a log fluorescence of 0.583 z-score.
For `TCATTTTGCTTTCTTTAACTGTGCTAG`, the log fluorescence was 2.32 z-score.
The log fluorescence of `AACGATATCGGGTTTCGAGACGTGCTA` is reported as 4.03 z-score.
With `TTAGATTTGAGTTCCGATTAGTGCTAG` the log fluorescence was 0.862 z-score.
`CTATAAAGCATCAGGAAAGCGTGCTAG` has a log fluorescence of -0.206 z-score.
The log fluorescence of `TTAGATTTCATTTCCGATTAGTGCTAG` is reported as 2.09 z-score.
The log fluorescence of `GTAGAACTGAGTCTCGATTAGTGCTAG` is reported as 0.328 z-score.
With `TAAGGTTTCGGTCTCGGTTAGTGCTAG` the log fluorescence was 9.85 z-score.

Set 5
Target: RNA binding protein fox-1 homolog 2, RRM domain, GST-SBP tag (RBFOX2, Homo sapiens, UniProt O43251-10, residues 100-194)
Method: RNA Bind-n-Seq
Molecule type: RNA
Sample: in vitro
Tested at: 365 nM
Notes: natural RNA segment, single round, ends assumed
Reference: no-protein control
Reading: higher = stronger binding
Constant ends, left off below: GGGAGUUCUACAGUCCGACGAUC … UGGAAUUCUCGGGUGCCAA
Residues (chain): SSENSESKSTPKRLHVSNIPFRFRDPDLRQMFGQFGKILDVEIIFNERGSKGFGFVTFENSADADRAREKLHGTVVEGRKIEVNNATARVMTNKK
Under “RBNS enrichment (R)”, `GGAGACUCGAAUGAUACCAAGAUAAUACAGAUAUUAUUAAGAAUUUUUUUGUGUUGAGGUGAUGUAGAUAAAUGUAUUUAUAUGCCUAGUUGGAUAUUCAAUAUUAUGAA` is recorded as 0.494.
Under “RBNS enrichment (R)”, `CUUAAAGCAUCAGUGAAAUUAUGGAAAAUUACUUAAAACGUGAAUACAUCAUCACAGUAGAAUUUAUUAUGAGAGCAUGUAGUAUGUAUCUGUAGCCCUAACACAUGGGA` is recorded as 6.79.
`UGUCACAUCUAAAUGCUGCUGGUCGAUACUUUAUCAUUCCACAAACAUUUAUUCACUUCCAAAUAUGUUUUAUGUAUACCCACAUACAGUGUGUGGGAUUACAGCCAAAG`: “RBNS enrichment (R)” 0.301.
`ACAAGGUGAGUGGAGUGUAAAACUGGUCAGCCCUUGGAGAGACUUCUUGGUUGUGUCACCCCCAAAGAGUCAGAACUGUACACAGUUCAAAACUUAGUGACUGUGGGUCA`: “RBNS enrichment (R)” 0.269.
For `ACUAAAGCUACAUCAGGCCUACUAAGCAGGAGCUGGCCUGUUGCCUACCACCCCUAGUAAGCAGGGUAGGAGCAACAGAUUCAAGAUGAGAGAAGUAUGUGUUUGUUUUU`, “RBNS enrichment (R)” read 0.416.
`AGGAUCCAUGAAAUUCCUAGGUCAGUUGAAUAAUAACUGAACUACUGGUUUGACUGUGGAUUAUUUCCUGGGUAUUAGUGGGACCCAACAGCACAUUGCUAUUAAUAGUA` — result for “RBNS enrichment (R)”: 0.47.
`CCAGCUAAGCUAAAUUGCAAGCUAGAUGCCUCCUGCCCCUGCCCUCAGCUGCCCAGGCCCCAGCAUGGAGAUGGCCUGCACAGCAGGCUCAGCACCUCUGAGGUGUGCAU` — result for “RBNS enrichment (R)”: 7.85.
For `CCUUCCACAUGUCAAUGUCGUAAGACAGAGAGCAAAGCCUCCCACCAUCGUUAGGACUCCUGAGUAACCAGGAGUUGCUGACUGUCCCUUCAAGUGACUGUGGCUCCUUU`, “RBNS enrichment (R)” read 0.37.
`UUUUCAUAAAUAUUUCUGUGGGCCAUUUUGCUUUGCUUGUUUGUGAAAAGAAUUGUCUCUAAUUAUUUGAACCUCUGAAGAAUUGUACACAAGGAGGAUCAGACUUUAAA` — result for “RBNS enrichment (R)”: 0.556.
Under “RBNS enrichment (R)”, `AAAAUUGAUAUGUUGAAACUUUAAUUCUUUUAUCAAUCCCAGCAUUUUGAGAUCAGUCUUUAUUAAUAAAACCUGUUCUCUUUAAUCAGCUUAAAAUCCAAAGUGUCAUA` is recorded as 0.358.
Under “RBNS enrichment (R)”, `CCUUGCUCAGCCAAGCUUGUCAGCAGCCUGUAGGAUCAUGGUUCAAGUGACAAUAAAGGAAGAAAGUAGAACACUCUUGCUUCUGCCUCUUCAGUUGGGAUCCAGUUAGU` is recorded as 0.383.
`CGUGAUGAGAGCCUGUAGCUCGUGACACACUUCUUUGGGUUACUCUGCUACAUUUCUGUAAGAGAGUUAAGUCUGAGAACUAGUCUCGCAAGUGUAUCUGUUAGUACACU` — result for “RBNS enrichment (R)”: 0.37.

Some of these lines once more (set 4):
`GGCGGTTTCGGGTTTCGGGACGTGCTA` gave a log fluorescence of 8.42 z-score.
The log fluorescence of `TTAGATTTCATTTCCGATTAGTGCTAG` is reported as 2.09 z-score.
The log fluorescence of `TTAGGACTGGGCTTCGGTTAGTGCTAG` is reported as 0.201 z-score.
`TCAATTTTTTTTTTCATACTGTGCTAG` has a log fluorescence of 1.33 z-score.
The log fluorescence of `GACGGTTTCGACTTTGGGGACGTGCTA` is reported as 5.23 z-score.
The log fluorescence of `TTCGGACTGCTTATCCTTTAGTGCTAG` is reported as -0.0657 z-score.
With `TCAGCTTCCTCTTTACTACTGTGCTAG` the log fluorescence was 0.602 z-score.
For `CACGGTCTCCTACTGCTGACGTGCTAG`, the log fluorescence was -0.388 z-score.
`CTATAAAGCATCAGGAAAGCGTGCTAG` has a log fluorescence of -0.206 z-score.
`GACGGTGTCCTTCTCCTGACGTGCTAG` gave a log fluorescence of -0.338 z-score.
With `TTAGATTTGAGTTCCGATTAGTGCTAG` the log fluorescence was 0.862 z-score.
With `TCAATTTCCACTTTGACACTGTGCTAG` the log fluorescence was 1.15 z-score.
